Measured values from different studies.
Numbered parts are unrelated; each lists some results of a single study.

Set 1
Target: Sal-like protein 4, full length isoform B (SALL4, Homo sapiens, UniProt Q9UJQ4-2, residues 1-616)
Technique: universal PBM
Form: double-stranded DNA, one strand shown
Medium: in vitro
Tested at: not given
Setting: 8-mer, flanks averaged, mean of replicates
Reading: higher = stronger binding
The E-score of `CAGCTACG` is reported as -0.17.
For `GCAGGTTA`, the E-score was -0.0861.
With `GAAATTCA` the E-score was 0.183.
`GCCGATCC` gave an E-score of -0.19.
The E-score of `ATCCATAG` is reported as 0.146.
The E-score of `CCCATTCG` is reported as -0.181.
`GTAGATCA` gave an E-score of 0.012.
For `CTAGTTTC`, the E-score was -0.0289.

Set 2
Target: Histone acetyltransferase KAT6A, winged helix 2, GST fusion (KAT6A, Homo sapiens, UniProt Q92794, residues 85-181)
Technique: protein binding microarray
Form: double-stranded DNA, one strand shown
Medium: in vitro
Tested at: not given
Setting: 8-mer, flanks averaged, mean of 2 arrays, mostly near background
Baseline: not given
Reading: higher = stronger binding
Target sequence (chain): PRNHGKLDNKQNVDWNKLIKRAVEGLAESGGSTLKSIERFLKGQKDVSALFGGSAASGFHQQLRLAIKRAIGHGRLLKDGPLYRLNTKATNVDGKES
The E-score of `GGTTGGTA` is reported as -0.00299.
For `ATTCCCGG`, the E-score was 0.136.
`CCAGCATC` has an E-score of 0.072.
`CGATCGTC` has an E-score of 0.0377.
`GAATAGTC` has an E-score of -0.0681.
The E-score of `CCAAGAGC` is reported as 0.12.
For `CCTGATCG`, the E-score was 0.0137.
`AAGGCACC` has an E-score of 0.0658.

Set 3
Target: RNA binding protein fox-1 homolog 2, RRM domain, GST-SBP tag (RBFOX2, Homo sapiens, UniProt O43251-10, residues 100-194)
Technique: RNA Bind-n-Seq
Form: RNA
Medium: in vitro
Tested at: 365 nM
Setting: natural RNA segment, single round, ends assumed
Baseline: no-protein control
Reading: higher = stronger binding
Under “RBNS enrichment (R)”, `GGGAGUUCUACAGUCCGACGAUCCCCAAUUUGUGAAGAGACUCCUAACACUGCACUAACCCAUUUGUGUACAUACAUGGGCUCAGCCCUGGGCCAAAUGUGCCUGAUGGGAACAGACUUGCAGGGCCAUGCAGUGGAAUUCUCGGGUGCCAA` is recorded as 0.447.
Under “RBNS enrichment (R)”, `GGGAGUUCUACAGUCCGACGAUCCACCCCUUAACUUUAAAAGAAUGUGAAAAACUAGCAUCAUAGUGCAUAUAAAUACUCAACCACAUUUCAGCUUAAGCUUCUAAUUUCUCAAGAAGUUGAAACAGUUAGUUUGGAAUUCUCGGGUGCCAA` is recorded as 0.873.
`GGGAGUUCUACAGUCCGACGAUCCCAUAGGCUGCGUGAGUGUGAGUGUGUAUGGAAGUGUGUGCGCAAGUGUGUGCGCAUGCAUGAGUGCGCACACAAGUUUGAGUGUAUGAAUUCUUGUGCCCACACAUGCUUGGAAUUCUCGGGUGCCAA` — result for “RBNS enrichment (R)”: 7.83.
`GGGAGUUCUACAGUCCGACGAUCAAUGAGCUCUUAGUGUUUUAUUUAUCUGAAAAAAUGUAAGUAAAAGCAGUGUUAGUGAGAGGUGCAAAGAAUUAUUCUAACAGACACCUGAAAGUAUCUGUAAGCAAUACUGGAAUUCUCGGGUGCCAA` — result for “RBNS enrichment (R)”: 0.709.
`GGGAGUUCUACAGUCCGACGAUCCUGGCGAGGUGGUAUUAGCCCAUCUUACAGAUGGGAAAACUGAAGUUCUGUGCUAGAGAUUGAGAACAAUGUAAAGACUUGAGGCUUAGGUAGUGCUCUAUCUGGUCAGGUGGAAUUCUCGGGUGCCAA`: “RBNS enrichment (R)” 0.375.

Set 4
Cell line: HEK-293T
Read-out: pseudovirus infection
Technique: FDA-approved drug library screen
Organism: VSV pseudotyped with SARS-CoV-2 spike
Tested at: 10 µM
Time: 16 h
Baseline: vehicle-treated
With C/C(=C\C(=O)OCCCCCCCCC(=O)O)C[C@@H]1OC[C@H](C[C@@H]2O[C@H]2[C@@H](C)[C@H](C)O)[C@@H](O)[C@H]1O the GFP-positive cells was 87.8%.
The GFP-positive cells of CCCCc1ncc(/C=C(\Cc2cccs2)C(=O)O)n1Cc1ccc(C(=O)O)cc1 is reported as 99.9%.
For COc1ccc([C@@H]2Sc3ccccc3N(CCN(C)C)C(=O)[C@@H]2OC(C)=O)cc1, the GFP-positive cells was 85.1%.

Set 5
Target: Replicase polyprotein 1ab, nsp13 helicase (rep, Severe acute respiratory syndrome coronavirus 2, UniProt P0DTD1)
Mode: inhibitor
Tested at: 20 µM
The inhibition of CN(C)CCCOc1nn(Cc2ccccc2)c2ccccc12 is reported as -1.61%.
With CC1(N2CCC(n3c([C@@H]4CCCNC4)nc4ccccc43)CC2)CCCCCCC1 the inhibition was 1.89%.
With C[C@H](Nc1cc2c(-c3ccc4c(c3)OCO4)noc2cn1)c1ccccc1 the inhibition was 1.98%.
With CCC(C)(Oc1ccc(C2(c3ccc(OC(C)(CC)C(=O)O)cc3)CCCCC2)cc1)C(=O)O (stereo not shown) the inhibition was -5.41%.
For CC(C(=O)O)c1ccc2c(c1)CC(=O)c1ccccc1S2 (stereo not shown), the inhibition was 6.04%.
COc1cc2c(cc1OC(C)C)[C@H](c1ccc(Cl)cc1)N(c1ccc(N(C)C[C@H]3CC[C@H](N4CCN(C)C(=O)C4)CC3)cc1)C(=O)C2 gave an inhibition of 10.4%.
With COCCOC(=O)C1=C(C)NC(C)=C(C(=O)OC(C)C)C1c1cccc([N+](=O)[O-])c1 (stereo not shown) the inhibition was 4.98%.
For C[C@@H](N)[C@H]1CC[C@H](C(=O)Nc2ccncc2)CC1, the inhibition was 9.03%.
O=C(O)CCCN1C(=O)c2cccc3cccc(c23)C1=O has an inhibition of -0.3%.
Cc1c(-c2ccc(O)cc2)n(Cc2ccc(OCCN3CCCCCC3)cc2)c2ccc(O)cc12 gave an inhibition of 13.8%.
CC(C)(S)[C@@H](N)C(=O)O gave an inhibition of -4.28%.
The inhibition of CC(NC(=O)c1ccccc1/N=C/c1c(O)ccc2ccccc12)c1ccccc1 (stereo not shown) is reported as 6.64%.
COc1cc2cc(c1Cl)N(C)C(=O)C[C@H](OC(=O)C(C)C)[C@]1(C)O[C@@H]1[C@H](C)[C@@H]1C[C@@](O)(NC(=O)O1)[C@H](OC)/C=C/C=C(\C)C2 has an inhibition of 4.22%.
C=CC(=O)Nc1cccc(Nc2nc(Nc3ccc(NC4CN(CCF)C4)cc3OC)ncc2C(F)(F)F)c1 has an inhibition of 18.1%.
The inhibition of CO[C@H]1/C=C/O[C@@]2(C)Oc3c(C)c(O)c4c(O)c(c(/C=N/N5CCN(C)CC5)c(O)c4c3C2=O)NC(=O)/C(C)=C\C=C\[C@H](C)[C@H](O)[C@@H](C)[C@@H](O)[C@@H](C)[C@H](OC(C)=O)[C@@H]1C is reported as 1.4%.
C/C(=C\c1csc(C)n1)[C@@H]1C[C@@H]2O[C@]2(C)CCC[C@H](C)[C@H](O)[C@@H](C)C(=O)C(C)(C)[C@@H](O)CC(=O)O1 gave an inhibition of 7.54%.
O=C(O)C(F)(F)C(F)(F)C(F)(F)C(F)(F)C(F)(F)C(F)(F)C(F)(F)F gave an inhibition of 11.7%.
For CN1CCC(NC(=O)c2cc(-c3c(O)cc(O)cc3Oc3ccc([N+](=O)[O-])cc3)on2)CC1, the inhibition was 6.46%.
With Cc1c(CC(C)(C)C(=O)O)n(Cc2ccc(Cl)cc2)c2ccc(F)cc12 the inhibition was 6.43%.
CC(=O)NS(=O)(=O)c1ccc(NC(=O)c2ccccc2C(=O)O)cc1 gave an inhibition of -3.21%.
The inhibition of Nc1cc(C(F)(F)F)c(-c2nc(N3CCOCC3)nc(N3CCOCC3)n2)cn1 is reported as -2.1%.
With CCC(=O)N1CCN(c2ccc(-n3c(=O)ccc4cnc5ccc(-c6cnc7ccccc7c6)cc5c43)cc2C(F)(F)F)CC1 the inhibition was 1.54%.

Set 6
Target: Replicase polyprotein 1ab, 3C-like proteinase (rep, Middle East respiratory syndrome-related coronavirus, UniProt K9N7C7)
Read-out: enzyme activity
Mode: inhibitor
Tested at: 10 µM
For O=C1C=CC(=O)C2=C1C1c3ccccc3C2c2ccccc21, the inhibition was 45%.
The inhibition of O=C(O)c1ccc(SSc2ccc(C(=O)O)cn2)nc1 is reported as 8%.
For CCCCCCCCCCCCCCCC[n+]1ccn(Cc2ccccc2)c1C, the inhibition was 12%.

Some of these lines once more (set 1):
`GTAGATCA` gave an E-score of 0.012.
`GCCGATCC` gave an E-score of -0.19.
The E-score of `CAGCTACG` is reported as -0.17.
